Assay results from different studies.
Each numbered part is a random draw from the data of one study; scales do not carry over between parts.

Block 1
Target: Histone acetyltransferase KAT6A, winged helix 1, GST fusion (KAT6A, Homo sapiens, UniProt Q92794, residues 1-85)
Technique: protein binding microarray
Molecule type: double-stranded DNA, one strand shown
Sample: in vitro
Concentration: not given
Notes: 8-mer, flanks averaged, mean of 2 arrays, mostly near background
Baseline: not given
Reading: higher = stronger binding
Construct (chain): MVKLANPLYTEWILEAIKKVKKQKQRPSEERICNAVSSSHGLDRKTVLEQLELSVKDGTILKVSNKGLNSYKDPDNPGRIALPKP
Sequence	E-score
ATTACCCG	0.256
AGTGGAGC	-0.117
ATTTGCAC	-0.351

Block 2
Target: Prothrombin, mature alpha-thrombin (F2, Homo sapiens, UniProt P00734)
Technique: aptamer microarray, sandwich
Molecule type: DNA with 2'F-ANA
Sample: in vitro
Concentration: 200 nM
Notes: whole 15-mer aptamer, many near background
Added: Cy3 exosite-II aptamer, 400 nM
Reading: higher = stronger binding
Sequence	mean fluorescence intensity [a.u.]
GGTTGGTGTGGTTGG (2'F-ANA at 2 3 11 12 14)	515
GGTTGGTGTGGTTGG (2'F-ANA at 2 3 4 6 8 10 11 12 14)	142
GGTTGGTGTGGTTGG (2'F-ANA at 1 2 3 5 6 8 11 12 13 14 15)	53.3
GGTTGGTGTGGTTGG (2'F-ANA at 1 2 4 5 7 13 15)	77

Block 3
Target: Interferon regulatory factor 3, full length, phosphomimetic (IRF3, Homo sapiens, UniProt Q14653, residues 1-427, S386D/S396D/S398D/S402D/T404D/S405D)
Sequence of UniProt Q14653 (whole entry, unmodified, looked up): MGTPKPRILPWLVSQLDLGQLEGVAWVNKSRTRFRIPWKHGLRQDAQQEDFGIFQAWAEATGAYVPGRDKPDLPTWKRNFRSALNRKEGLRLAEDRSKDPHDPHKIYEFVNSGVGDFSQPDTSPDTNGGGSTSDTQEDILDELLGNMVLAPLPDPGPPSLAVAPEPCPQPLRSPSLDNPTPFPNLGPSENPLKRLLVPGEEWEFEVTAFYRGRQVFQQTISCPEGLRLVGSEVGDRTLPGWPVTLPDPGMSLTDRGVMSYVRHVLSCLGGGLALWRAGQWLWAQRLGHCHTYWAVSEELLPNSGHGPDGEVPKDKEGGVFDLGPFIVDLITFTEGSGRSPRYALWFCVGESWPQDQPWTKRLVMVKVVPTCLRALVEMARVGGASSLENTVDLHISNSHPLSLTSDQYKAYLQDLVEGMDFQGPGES
Technique: protein-binding microarray
Molecule type: double-stranded DNA, one strand shown
Sample: in vitro
Concentration: 2540 nM top
Notes: 60-bp whole probe
Added: salmon DNA 0.4 mg/ml
Baseline: random background probes
Reading: higher = stronger binding
Sequence	fitted relative affinity [z-score]
GCCTAGCACAGTCCGTGGATTGACCAGATGTGCTAGGTCTTGATTCGCTTGACGCTGCTG	-0.264
GCCTAGCACTTAGGTATGGGACTGGGTTAGTGCTAGGTCTTGATTCGCTTGACGCTGCTG	-0.757
GCCTAGCACGACGGTTTCGGACTGGGGAAGTGCTAGGTCTTGATTCGCTTGACGCTGCTG	4.76

Mixed results
Substance	target	assay	system	conditions	how to read	endpoint	result
PhoQ, residues 284 288 289 292 302 303 SCKMEA	PhoP, residues 12 14 15 18 19 AGCRL (Escherichia coli, UniProt P23836)	Sort-seq, refers to: YFP reporter	E. coli	PhoQ-PhoP variant library, added: 10 µM Mg2+	baseline: high Mg2+ state, higher = stronger signaling	fold induction	9.76

Excerpt of the above (block 2):
Sequence	mean fluorescence intensity [a.u.]
GGTTGGTGTGGTTGG (2'F-ANA at 1 2 4 5 7 13 15)	77
